Published values of several laboratories.
Protocols differ between the studies behind these lines. Numbers after ± are the reported error.

| SMILES | test | system | conditions | scale | quantity | result |
| --- | --- | --- | --- | --- | --- | --- |
| [11CH3]n1c(=O)n(CCCO)c(=O)c2c1nc(Oc1cccc(OC(F)(F)F)c1)n2Cc1ccc(Cl)cc1 | ex vivo biodistribution | Sprague Dawley rat, liver | 30 min post injection | – | tracer uptake | 3.03 ± 0.51 %ID/g |
| CC(C)(CCCC/C=C/CCCCCC(C)(C)C(=O)O)C(=O)O | – | ICR mouse, plasma | intravenous, 10 mg/kg | – | volume of distribution (Vss) | 0.33 L/kg |
| CC(C)[C@H](NC(=O)CNC(=O)[C@H](CCC(N)=O)NC(=O)[C@H](C)N)C(=O)O | – | human | 20 mg/kg, 3 days, thrice daily dosing | – | subjects given concomitant medication | 0% |
| CCCC[C@H](NC(=O)CN1CCC(NC(=O)CN2CCC(NC(=O)CN3CCN(CC(=O)O)CCN(CC(=O)O)CCN(CC(=O)O)CC3)CC2)CC1)C(=O)N[C@H]1CC(=O)NCCCC[C@@H](C(N)=O)NC(=O)[C@H](Cc2c[nH]c3ccccc23)NC(=O)[C@H](CCCNC(=N)N)NC(=O)[C@@H](Cc2ccccc2)NC(=O)[C@H](Cc2c[nH]cn2)NC1=O [gallium-68 labelled] | radio-HPLC | mouse, plasma | intravenous, 8 to 12 MBq, 15 min post injection | – | intact compound | > 94% |
| CN[C@](C)(C[18F])C(=O)O | – | SCID mouse U87 xenograft, liver | 60 min, post injection | – | tissue uptake | 4.2 ± 1.8 %ID/g |
| CSCC[C@@H]1NC(=O)[C@@H]2CSSC[C@H](NC(=O)[C@H](CO)NC(=O)[C@H](C)N)C(=O)N[C@@H](CCCNC(=N)N)C(=O)N[C@@H]([C@@H](C)O)C(=O)N3CCC[C@H]3C(=O)N[C@@H](CCCCN)C(=O)N[C@@H](CC(=O)O)C(=O)N[C@H]3CSSC[C@H](NC(=O)[C@H](CCCCN)NC(=O)[C@H](CCCNC(=N)N)NC(=O)[C@H](CC(N)=O)NC1=O)C(=O)N[C@@H](CCCCN)C(=O)N[C@H]1CSSC[C@H](NC(=O)[C@@H]4CCCN4C(=O)[C@H](CC(=O)O)NC(=O)[C@H](C)NC3=O)C(=O)N[C@@H](C)C(=O)N[C@@H](CCCCN)C(=O)N[C@@H](CCC(=O)O)C(=O)N[C@@H]([C@@H](C)O)C(=O)NCC(=O)N[C@@H](CSSC[C@@H](C(N)=O)NC(=O)[C@H](CCCNC(=N)N)NC(=O)[C@H](CC(N)=O)NC1=O)C(=O)N1CCC[C@H]1C(=O)N[C@@H](Cc1ccc(O)cc1)C(=O)NCC(=O)N[C@@H](CCCCN)C(=O)N2 | – | DA rat, pristane-induced arthritis, serum | subcutaneous, single 0.1 mg/kg at onset, end of 21-day trial | – | globulin | 1.18 g/dL |
| CCCCCCCC(=O)NCCCC[C@H](NC(=O)[C@H](Cc1ccccc1)NC(=O)[C@@H](CCCNC(=N)N)NC(=O)[C@@H](N)Cc1ccc(O)cc1)C(N)=O | – | mouse, CD-1, male, plasma | intravenous, 3 mg/kg | – | terminal elimination rate constant | 0.00915 min⁻¹ |
| NC(=O)c1c(F)ccc(OCc2nc3cc(Cl)cnc3s2)c1F | chemical stability | PBS | 10 µM, 24 h | – | compound remaining | 100% |
| CNC(=O)c1cccc(-c2ccc(O[C@H]3O[C@H](CO)[C@@H](O)[C@H](O)[C@@H]3O)c(C)c2)c1 | – | rat | oral, 10 mg/kg, 10% cyclodextrin formulation | – | half-life | 2.8 h |
| NC(=O)CC[C@@H]1NC(=O)[C@H](Cc2ccccc2)NC(=O)[C@H](Cc2ccc(O)cc2)NC(=O)[C@@H](N)CSSC[C@@H](C(=O)N2CCC[C@H]2C(=O)N[C@@H](CCCN=C(N)N)C(=O)NCC(N)=O)NC(=O)[C@H](CC(N)=O)NC1=O | radioimmunoassay | Sprague-Dawley rat, plasma | intra-arterial, 20 ng/kg, 5 min | baseline: 1 min post-injection | plasma level reduction | ~70% |
| CCCCCCCC(=O)OC[C@H](NC(=O)[C@H](CO)NC(=O)CN)C(=O)N[C@@H](Cc1ccccc1)C(=O)N[C@@H](CC(C)C)C(=O)N[C@@H](CO)C(=O)N1CCC[C@H]1C(=O)N[C@@H](CCC(=O)O)C(=O)N[C@@H](Cc1cnc[nH]1)C(=O)N[C@@H](CCC(N)=O)C(=O)N[C@@H](CCCNC(=N)N)C(=O)N[C@H](C(=O)N[C@@H](CCC(N)=O)C(=O)N[C@@H](CCC(N)=O)C(=O)N[C@@H](CCCNC(=N)N)C(=O)N[C@@H](CCCCN)C(=O)N[C@@H](CCC(=O)O)C(=O)N[C@@H](CO)C(=O)N[C@@H](CCCCN)C(=O)N[C@@H](CCCCN)C(=O)N1CCC[C@H]1C(=O)N1CCC[C@H]1C(=O)N[C@@H](C)C(=O)N[C@@H](CCCCN)C(=O)N[C@@H](CC(C)C)C(=O)N[C@@H](CCC(N)=O)C(=O)N1CCC[C@H]1C(=O)N[C@@H](CCCNC(=N)N)C(=O)O)C(C)C | – | human, plasma | intravenous infusion, 3 µg/kg/h | baseline: 1 µg/kg/h dose | AUC fold change | 4 fold |
| CC1(C)C(=O)N(c2ccc(C#N)c(C(F)(F)F)c2)C(=S)N1c1ccc(C(=O)O)c(F)c1 | – | human, male, plasma | oral, 160 mg, single dose, after high-fat meal | – | MRT | 334 ± 56.1 h |
| C=Cc1cc(O)cc2nc(-c3ccc(O)c([76Br])c3)oc12 | – | female C57BL/6 mouse, lung | 6 h, high dose | – | tissue uptake | 0.08 ± 0.01 %ID/g |
| CC(C)[C@@H]1NC(=O)[C@H](Cc2ccccc2)NC(=O)[C@H](Cc2ccc(O)cc2)NC(=O)CCSSC[C@@H](C(=O)N2CCC[C@H]2C(=O)N[C@H](CCCNC(=N)N)C(=O)NCC(N)=O)NC(=O)[C@H](CCC(N)=O)NC1=O | – | Wistar rat, blood | intravenous, 100 µg/kg single dose, 72 h | – | GGT | 3.6 ± 0.9 IU/L |
| CC[C@H](C)C(=O)N1CCC(NC(=O)Nc2ccc(OC(F)(F)F)c(F)c2)CC1 | – | healthy volunteers | oral, 16 mg single dose | – | subjects with serious TEAE | 0% |
| C/C=C/C=C/C/C=C/CCCCCCCc1cccc(O)c1O | – | female Kunming mice, tumour-bearing, heart | intravenous, 10 mg/kg, 0.5 h | – | tissue concentration | 20800 ± 2050 ng/g |
| CN(C)C(CNC(=O)Nc1cc(C(F)(F)F)ccc1N1CCOCC1)c1ccncc1 (stereo not shown) | – | mouse, serum | intraperitoneal, 360 mg/kg single dose | – | serum albumin | 2.3 g/dL |
| O=P1(NCCCl)NCCCO1 (stereo not shown) | – | rat, plasma | intravenous, 10 mg/kg CP, added: ketoconazole 10 mg/kg oral 50 min before | – | AUC(0-inf) | 593 ± 160 ng·h/mL |
| CC[C@H](C)[C@@H]1NC(=O)[C@H](CCCCN)NC(=O)[C@H](CCCCN)NC(=O)[C@H](Cc2ccc(O)cc2)NC(=O)[C@H](CC(C)C)NC(=O)[C@@H]2CCCN2C(=O)[C@H](C)NC(=O)CNC(=O)CNC(=O)[C@H](CO)NC(=O)CNC(=O)CNC(=O)[C@H](CO)NC(=O)[C@H](CCC(=O)O)NC(=O)[C@H](CC(C)C)NC(=O)[C@H](CC(C)C)NC(=O)[C@H](CCCCN)NC(=O)[C@H](CCCCN)NC(=O)[C@H]([C@@H](C)CC)NC(=O)[C@H]([C@@H](C)CC)NC(=O)[C@H](CCCCN)NC(=O)[C@H](CCCCN)NC(=O)[C@H](Cc2ccc(O)cc2)NC(=O)[C@H](CC(C)C)NC(=O)[C@@H]2CCCN2C(=O)[C@H](C)NC(=O)CNC(=O)[C@@H]2CSSC[C@H](NC(=O)[C@H](CC(C)C)NC(=O)[C@H](CCCCN)NC(=O)[C@H](CCCCN)NC(=O)[C@H]([C@@H](C)CC)NC1=O)C(=O)N[C@@H](CCC(=O)O)C(=O)N[C@@H](CC(N)=O)C(=O)NCC(=O)N2 | hemolysis | uninfected human erythrocytes | 1 h | – | HC10 | > 128 µM |
| COc1cc2ncnc(Oc3cccc(N[11C](=O)Nc4cc(C(C)(C)C(F)(F)F)on4)c3)c2cc1OC | radio-HPLC | female Balb/c nude mice, urine | intravenous, 5 min | baseline: radioactivity | metabolites in urine | 88.1% |
| CC(=O)NCC(=O)N[C@@H](C)C(=O)N[C@@H](CCCCNP(=O)(O)O)C(=O)NCC(=O)NCC(N)=O | non-enzymatic hydrolysis | – | 100 µM, pH 7.8, no enzyme | – | first-order rate constant | 5.6e-05 s⁻¹ |
| CCNc1cc2[o+]c3cc(NCC)c(C)cc3c(-c3ccccc3C(=O)OCCOCC[18F])c2cc1C | – | rat | 60 min | baseline: heart over lung | tissue uptake ratio | 2.3 |
| CCCCCCCCCCCCC(=O)O.O=C1CCCC2C3CCCN4CCCC(CN12)C34 (stereo not shown) | electrical conductivity | water | 308.15 K | – | standard enthalpy of aggregation | -0.569 kcal/mol |
| CCCCCCCC(=O)SCC/C=C/[C@@H]1CC(=O)NCc2nc(cs2)C2=N[C@@](C)(CS2)C(=O)N[C@@H](C(C)C)C(=O)N1 | – | mouse NIH Swiss, female | intravenous, 5 mg/kg | – | alpha half-life | 2.8 min |
| CCC(C)n1c(C(=O)Nc2cnc(C(=O)NC)n(CC(C)C)c2=O)ncc(NC(=O)c2ncc(NC(=O)c3ccccc3)c(=O)n2Cc2ccc(OC)cc2)c1=O (stereo not shown) | – | MOLT-4, zebrafish embryo xenograft | 500 nM, 48 h | – | developmental toxicity | not toxic |

A few entries again:
| SMILES | test | system | conditions | scale | quantity | result |
| --- | --- | --- | --- | --- | --- | --- |
| CCCCCCCC(=O)NCCCC[C@H](NC(=O)[C@H](Cc1ccccc1)NC(=O)[C@@H](CCCNC(=N)N)NC(=O)[C@@H](N)Cc1ccc(O)cc1)C(N)=O | – | mouse, CD-1, male, plasma | intravenous, 3 mg/kg | – | terminal elimination rate constant | 0.00915 min⁻¹ |
| NC(=O)c1c(F)ccc(OCc2nc3cc(Cl)cnc3s2)c1F | chemical stability | PBS | 10 µM, 24 h | – | compound remaining | 100% |
